Measured values pooled from the literature.
A part holds a random share of what one study measured.

Block 1 — method: protein binding microarray; molecule type: double-stranded DNA, one strand shown; sample: in vitro; tested at: not given; relative to: not given; reading: higher = stronger binding; quantity: E-score
Target: Histone acetyltransferase KAT6A, both winged helices, GST fusion (KAT6A, Homo sapiens, UniProt Q92794, residues 1-181)
Setting: 8-mer, flanks averaged, mean of 2 arrays, mostly near background
Construct (chain): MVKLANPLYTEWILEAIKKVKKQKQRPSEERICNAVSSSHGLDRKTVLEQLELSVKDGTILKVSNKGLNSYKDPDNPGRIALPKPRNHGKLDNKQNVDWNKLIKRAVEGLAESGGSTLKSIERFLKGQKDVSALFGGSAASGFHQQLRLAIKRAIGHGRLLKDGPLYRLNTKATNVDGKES
CTAATCAG: -0.0936
ACAGATAC: -0.015
TTACGAAA: -0.0104
ACCGTGCC: 0.0759
GCTCGGGA: 0.106
GTTACTCA: 0.0147
CCTCTCTA: -0.157
AGTGACAG: -0.116
CTGACTAC: -0.0196
AATTGCGA: 0.0612
CAATGCTA: -0.132
CATCTGAC: -0.202
CGGAGGAC: 0.139
CGCACTAC: 0.167
CATTTCAG: -0.143
CGGTTGGC: 0.123
CTGAAAAG: -0.0408
CAACGACC: -0.107
AGGAGTAT: -0.296
CATGAGAC: -0.0235
GACAAAAA: 0.0325
CTGTTCCA: -0.202
AGGCTCGC: 0.0695
GAAAACTA: -0.031
ATACTACG: 0.0912

Block 2 — method: RNA Bind-n-Seq; molecule type: RNA; sample: in vitro; tested at: 365 nM; relative to: no-protein control; reading: higher = stronger binding; quantity: RBNS enrichment (R)
Target: RNA binding protein fox-1 homolog 2, RRM domain, GST-SBP tag (RBFOX2, Homo sapiens, UniProt O43251-10, residues 100-194)
Setting: natural RNA segment, single round, ends assumed
Constant ends, left off below: GGGAGUUCUACAGUCCGACGAUC … UGGAAUUCUCGGGUGCCAA
Residues (chain): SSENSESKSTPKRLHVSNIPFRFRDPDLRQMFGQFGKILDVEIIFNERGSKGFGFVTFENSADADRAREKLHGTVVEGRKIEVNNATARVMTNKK
CUACCAAUGACAGGGUGCCCUGGCUGGAGCUGUCAUCACACACACCCCUCAGCUCGGAGGCUGUGGGCUCCUCAAAGCUGGAGAAAGAGGCCAAGAUUUUUCUGCACACG: 0.51
UGCUCUCUCAAGAUUAAAGUCUUUCAGCAACAUUCUUUAUUGUCAUCAUAAGGAAAAACUUUUAUCGCAAUGAUAGUCAGUUCACAUUAGUUUAGCACUAUAGAUAGUAU: 0.612
CAGGAGCACAAGGAUGUGAUGUGAGGCAGGACCCACCUGGUGGCCUCUGCCCCGUCUCAUGAGGGGCCCGAGCAGAAGCAGGAUAGUUGCUCCGCCUCUGCUGGCACAUU: 0.556
GAAGAUUCAGUGAAGGUUGAAGAAUAGAAUGUCUGCUGAAUGUGCAAGCCCUACCUAAGGAACGGCUCUUGGAAGACUUCAUAAUGAUGCUGUCUCUGGCUGGGCCUUGG: 0.653
CCUCUUCACUUCCCCGGCACCCUUGUAUCCCCACAGCAGUACUGAGGAGCACGGACGCCUCUGUGAGGCAUGGGAAGGUGGGAUUGUUGAACUAAUAAACGUUAAUCUGA: 0.4
UCUGACUUCUCAGCCUCAUUUGGACUAAAAAAAGAAAGCAGAAAUCCAUGAACACAUUGCUUCUCGGCCUUUUGGCUAAGAUCAAGUGUAGAAAUCCAUGAACACUAAAG: 0.188
UUGAAGGACUAAAUUAUUAAUUAUUGUUCAGUAAUGAUCACCUAAUUUUUCCCAUAAGAAUUAUAAGCUGCAUUUCUAAGGCAUAGCUCCAAUUAUGAGAUAAAAUUUAU: 0.505
ACCUCCAUGGAAGCGGGGGCAUGCAAGGGCGAGACAGUUUUUCCUCAUCCCUUGCCAAGCUUCUCUUAGGAUUGGUUUGCAGGGUAUAGAAUCCCAUCACGCGUGGGAAA: 1.95
CACUUGUGGUCUGAAUGUUCUCCUGAGGCCUCUGGCUAGAGUCUAGCCCCACCCAGGGGGAGGGGCUUAGCUGCUGAAAGUCCACCUUGCUAGAGCUAGGGUGGCUCUUG: 0.417

Block 3 — method: protein-binding microarray; molecule type: double-stranded DNA, one strand shown; sample: in vitro; tested at: 940 nM top; setting: 60-bp whole probe; together with: salmon DNA 0.4 mg/ml; relative to: random background probes; reading: higher = stronger binding; quantity: fitted relative affinity; constant ends, left off below: GCCTAGCAC … GTCTTGATTCGCTTGACGCTGCTG
Target: Interferon regulatory factor 5, full length, phosphomimetic (IRF5, Homo sapiens, UniProt Q13568-2, residues 1-514, S451D/S453D/S456D/S462D)
TTAGGTTTCGACTTACGGTTAGTGCTA: 9.77 z-score
TTAGGTATCGGGACTGTGTTAGTGCTA: 4.1 z-score
GACGGTTTTGGTTCCGGGACGTGCTAG: 3.76 z-score
TTAGAACTGAGTTTGGATTAGTGCTAG: -0.309 z-score
GCATTTTTCTAACCCATTGAGTGCTAG: 0.985 z-score
TCAATTATGAGTCTTGAACTGTGCTAG: -0.536 z-score
GCCGATTCCAGTTTCGAGACGTGCTAG: 4.92 z-score
TTAGGTCTCCTACTGCTTGAGTGCTAG: -0.231 z-score
TCAGTTTTCAATTTTTGACTGTGCTAG: 0.794 z-score
AGTGTCATGTTTCTATGGGCGTGCTAG: 1.04 z-score
TTAGGTATCCTTATCCTGTAGTGCTAG: 0.421 z-score
TTAGGTTTCGGGGATCGGTTAGTGCTA: 8.57 z-score
GACGATATCAGTCTCGGGACGTGCTAG: 0.988 z-score
CTATGTCTGTTTTTGCTTTCGTGCTAG: 1.41 z-score
GGGTTCAAGAAGTAGGAGAAGTGCTAG: -0.375 z-score
CACGGACTGGACTATCGGGACGTGCTA: -0.209 z-score
CTTGCTTGGTGTCTCTGGCCGTGCTAG: -0.378 z-score
GATGGTTTCCTTATCCTGACGTGCTAG: 2.12 z-score
TTAGGAGTGGGTTTCGGTTAGTGCTAG: 7.36 z-score
TTAGGTATCGGGTTTCTGTTAGTGCTA: 6.01 z-score
TTAGGTATCGTTCTCGGTTAGTGCTAG: 6.26 z-score
ATAAACTTAGTTTTCAATTTGTGCTAG: 0.0294 z-score
TCACGTATATTCCCTAGAACTGTGCTA: 0.814 z-score
GACGATTTCAGTCTCGAGAAGTGCTAG: 1.75 z-score
TTAGATTTCAGCATCGATTAGTGCTAG: 0.432 z-score

Block 4 — method: aptamer microarray, sandwich; molecule type: DNA with 2'F-ANA; sample: in vitro; tested at: 200 nM; together with: Cy3 exosite-II aptamer, 400 nM; reading: higher = stronger binding; quantity: mean fluorescence intensity; strand: GGTTGGTGTGGTTGG
Target: Prothrombin, mature alpha-thrombin (F2, Homo sapiens, UniProt P00734)
Setting: whole 15-mer aptamer, many near background
2'F-ANA at 6 12: 784 a.u.
2'F-ANA at 2 4 5 6 7 8 10 11 14 15: 50.2 a.u.
2'F-ANA at 2 3 8 10 11 14: 274 a.u.
2'F-ANA at 1 4 7 9 10 12 14: 46.4 a.u.
2'F-ANA at 3 5 7 12 15: 260 a.u.
2'F-ANA at 1 2 4 5 6 7 9 10 12 13: 60.7 a.u.
2'F-ANA at 2 3 5 8 10 12 15: 66.3 a.u.
2'F-ANA at 1 3 5 6 7 11 12 13 14 15: 49.1 a.u.
2'F-ANA at 1 8 9 11 15: 173 a.u.
2'F-ANA at 2 4 6 7 8 9 11 15: 233 a.u.
2'F-ANA at 1 4 6 8 9 14: 45.3 a.u.
2'F-ANA at 1 11 13: 151 a.u.
2'F-ANA at 2 4 6 10 11 15: 73.9 a.u.
2'F-ANA at 3 5 8 11 13 14: 70.7 a.u.
2'F-ANA at 1 2 4 5 7 10 12 14 15: 72.8 a.u.
2'F-ANA at 1 3 6 7 8 9 10 12: 114 a.u.
2'F-ANA at 1 3 9 10 14: 58.8 a.u.
2'F-ANA at 1 2 3 7 8 9 10 11 14: 59.1 a.u.
2'F-ANA at 4 5 6 7 8 11 13: 55.8 a.u.
2'F-ANA at 2 5 6 10: 56.2 a.u.
2'F-ANA at 1 2 8 9 10 12: 69.4 a.u.
2'F-ANA at 2 3 4 5 6 7 9 14 15: 61.3 a.u.
2'F-ANA at 5 7 10 15: 46.1 a.u.
2'F-ANA at 1 3 4 6 8 11 14 15: 68.7 a.u.

Some of these lines once more (block 4):
2'F-ANA at 1 2 3 7 8 9 10 11 14: 59.1 a.u.
2'F-ANA at 2 5 6 10: 56.2 a.u.
2'F-ANA at 2 3 4 5 6 7 9 14 15: 61.3 a.u.
2'F-ANA at 2 3 5 8 10 12 15: 66.3 a.u.
2'F-ANA at 1 3 9 10 14: 58.8 a.u.
2'F-ANA at 2 4 5 6 7 8 10 11 14 15: 50.2 a.u.
2'F-ANA at 5 7 10 15: 46.1 a.u.
2'F-ANA at 1 4 7 9 10 12 14: 46.4 a.u.
2'F-ANA at 1 3 6 7 8 9 10 12: 114 a.u.
2'F-ANA at 1 11 13: 151 a.u.
